Assay results gathered from unrelated publications.
A part holds a random share of what one study measured. Substitutions count along the parent as printed.

Series 1
Target: CREBZF, bZIP domain (human)
Technique: DHFR protein complementation
Sample: yeast
Setting: single substitutions, most at no-binding floor
Baseline: wild-type JUN-FOS pair
Reading: higher = stronger binding
Measurement: binding fitness
Parent: JUN, bZIP domain (human); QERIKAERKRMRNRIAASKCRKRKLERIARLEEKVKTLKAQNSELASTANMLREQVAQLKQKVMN; partner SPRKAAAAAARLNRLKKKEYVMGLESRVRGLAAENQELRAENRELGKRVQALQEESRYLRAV
S47C: -1.35 natural log
I28E: -1.52 natural log
E33V: -1.37 natural log
K36S: -1.6 natural log
L45Y: -1.35 natural log
K39E: -1.49 natural log
L31K: -1.49 natural log
L52N: -1.52 natural log
E54T: -1.5 natural log
A46L: -1.4 natural log
E44F: -1.47 natural log
L52C: -1.46 natural log
L59W: -1.07 natural log
L45M: -1.51 natural log
V35S: -1.53 natural log
I28P: -1.5 natural log
L45K: -1.43 natural log
E54D: -1.42 natural log

Series 2
Target: RNA binding protein fox-1 homolog 2, RRM domain, GST-SBP tag (RBFOX2, Homo sapiens, UniProt O43251-10, residues 100-194)
Technique: RNA Bind-n-Seq
Molecule type: RNA
Sample: in vitro
Tested at: 365 nM
Setting: natural RNA segment, single round, ends assumed
Baseline: no-protein control
Reading: higher = stronger binding
Measurement: RBNS enrichment (R)
Constant ends, left off below: GGGAGUUCUACAGUCCGACGAUC … UGGAAUUCUCGGGUGCCAA
Construct (chain): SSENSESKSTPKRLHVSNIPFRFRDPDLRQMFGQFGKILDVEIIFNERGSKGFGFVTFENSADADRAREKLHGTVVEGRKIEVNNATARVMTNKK
CUUUCCGUAGAUAUGCCGAUGGUAAUUAUCUUUUCUUUUGGCUUAAUCCGAUUUGGUUUGGUUUUUCCCUUUCCCUGGAUUCUUUCCUACCUUCUUCAGGCUGUCAAGCA: 0.591
CCGGCUGCCUACCAGGGGCCUUCCUGUGUGGCCUGCCUUCACCCCACUCAGCUCACCUCUCCCUCCACCUCCUCUCCACCUGCUGGUGAGAGGUGCAAAGAGGCAGAUCU: 0.273
AAAUGACCAUUAAAUGAGUUUAUAGAUUAUUCUGUAUCAAGAUAAAUCUGAUUCCAGUUAAGCUAUAAACUUGUGGGAUUUUCUUGUAGCCCUAUAGUUCUGUGACUUCA: 0.232
CUGGCACUCGGUCUUCACAGAGCACAGUGGGUGGAUACUGCUAACACUUACUGGGCCCCGGUCGAAAUUGUGAAAAAUACCCUAAUGAUUAAUAAGGAAUUUUAAUCUAG: 0.458
CUUCAUAAUGAUUUUAUGUCUUGCUUUAAAGAUAGUACCUGCAGAAUAGUUUUUGAAUACACCCACAUUUUGUACGUUUCCAUGUAAGCUGACAUAGUGUUCUGCCAUGU: 0.492
UAAGUCAGAAUACAAAUCAGCACAGAUAUUCGAAUGUUUCCAAUAUUUUAAAAUGUAAUGUUACUUAUGAAAAGUAUUUUGCUUAAGGUUGUGUGUGUAUUGUGUAUAUA: 0.455
UUAUAACUUAUUUCAGAUGUGUCCUUUUAUUGUACAUUUUGUAUAAUAAAUGUUGAAGUUGAAAACUUUACUCGUUUCUAGUUCUUGUGUGAGUUCAUACGUGCCAUAAC: 0.302
UUUUAGGUAAACAUGACAUGACAUGUACUUGUAAUAUCAGUGAAAGGGGCUUUUAGUCGUCUCAGUAUCUUUUUUGCAUUCAGGUAUUAUAGCGUUUCCAACAAAUUGAG: 1.28
UCUUCAACUCUUGCCCCAUGUCUCCUUGGCAGCAGGAUGCUGGCAUCUGUGUAGUCCUCAUACUGUUUACUGAUAACCCACAAAUUCAUUUUCAUGGCAGACCUAAGCUC: 0.468
AAAAUAAAUAAAUAAUAAUUUGUGUAUGUGAUGACUGACUCUAGUCAUUAUGGAAAAUAACUUUUGGCAGUUUAGUUCCUAAUGUUAACAAUUCCUCUUUUUAAGAGAGG: 0.58
GAUGCAGCCCCAGAGGCUGGUGGCAGUUUCCUGUCCAUUGGUAGGUGACGGCCCCUGGCUCAGGCAGAGGGAGAUGGUUAGACUCUUGCAGGGCUAAAACUCUAAUUUGG: 0.772
GUACAACUUGCUUUUAGCAUGAUUAUUUUCCUAAAUAAAAAGACAAAGAAUUUACUUACUUUAUGUUAAUUACGGGCAUGAAGCAAAAGGUUUUCUUUAAAAAAAAAAAA: 2.42

Series 3
Target: Sal-like protein 4, full length isoform B (SALL4, Homo sapiens, UniProt Q9UJQ4-2, residues 1-616)
Technique: universal PBM
Molecule type: double-stranded DNA, one strand shown
Sample: in vitro
Tested at: not given
Setting: 8-mer, flanks averaged, mean of replicates
Reading: higher = stronger binding
Measurement: E-score
Construct (chain): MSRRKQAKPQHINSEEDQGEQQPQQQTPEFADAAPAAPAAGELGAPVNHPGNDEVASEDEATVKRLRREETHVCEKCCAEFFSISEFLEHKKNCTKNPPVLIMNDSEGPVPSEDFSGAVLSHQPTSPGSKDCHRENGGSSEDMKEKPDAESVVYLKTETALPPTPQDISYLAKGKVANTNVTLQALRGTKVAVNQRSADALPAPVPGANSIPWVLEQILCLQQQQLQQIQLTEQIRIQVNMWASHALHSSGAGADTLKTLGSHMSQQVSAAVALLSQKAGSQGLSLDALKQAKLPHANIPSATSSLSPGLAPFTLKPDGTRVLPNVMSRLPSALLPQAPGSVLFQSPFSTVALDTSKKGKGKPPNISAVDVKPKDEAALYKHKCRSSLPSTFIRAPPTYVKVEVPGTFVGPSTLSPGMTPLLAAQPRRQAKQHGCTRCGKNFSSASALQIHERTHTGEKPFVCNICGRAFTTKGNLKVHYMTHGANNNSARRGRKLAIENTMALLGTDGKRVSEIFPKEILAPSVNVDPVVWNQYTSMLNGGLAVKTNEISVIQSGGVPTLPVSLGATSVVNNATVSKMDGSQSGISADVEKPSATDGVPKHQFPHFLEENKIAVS
GTGATTAA: 0.219
CCTAATTC: 0.117
GTCGAGAA: 0.037
CCAGCGAC: -0.355
CCTGCTTC: -0.184
GTTTTGCA: 0.0892
CGTGGCGC: -0.271
GGAGAGTA: 0.0307
TCGCTCAA: -0.14
CCGGTACA: -0.127
GATCTCGA: -0.204
CGGCCACA: -0.216
ATTCTGAC: 0.0143
AAGGCAAT: 0.131
AACTTCAG: -0.00556
AGCCCAGA: -0.27
CATGCTTA: 0.192
AAGTAGAG: 0.101

Series 4
Target: ABI1, truncated, D143A, DHFR fusion (Arabidopsis thaliana)
Technique: DHFR PCA, deep sequencing
Sample: yeast
Setting: methotrexate growth selection, single substitutions
Together with: (+)-ABA 58 µM
Baseline: wild-type fitted maximum
Reading: higher = stronger binding
Measurement: relative binding score
Parent: PYL1, truncated, DHFR fusion (Arabidopsis thaliana); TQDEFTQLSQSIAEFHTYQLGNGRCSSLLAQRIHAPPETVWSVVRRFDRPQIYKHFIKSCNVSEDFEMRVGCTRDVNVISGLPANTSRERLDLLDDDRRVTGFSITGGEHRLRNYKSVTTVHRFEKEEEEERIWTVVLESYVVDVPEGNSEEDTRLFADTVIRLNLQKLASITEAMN; partner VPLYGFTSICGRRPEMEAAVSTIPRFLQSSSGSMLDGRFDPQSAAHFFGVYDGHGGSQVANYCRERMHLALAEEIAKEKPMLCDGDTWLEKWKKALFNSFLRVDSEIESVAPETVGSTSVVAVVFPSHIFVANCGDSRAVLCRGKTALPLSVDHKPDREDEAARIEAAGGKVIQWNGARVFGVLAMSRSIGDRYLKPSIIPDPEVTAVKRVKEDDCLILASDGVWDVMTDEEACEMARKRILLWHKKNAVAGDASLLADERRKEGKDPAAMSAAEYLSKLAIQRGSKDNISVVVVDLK
E139Q: 85.4%
E174M: 66.3%
L166T: -0.872%
G108C: 14.3%
E89T: -2.69%
V121D: 5.08%
W41Y: 13.3%
I12M: 67%
I57V: 83.5%
S26F: 74.9%
V62R: 26%
S42I: 35.1%
Q31M: 57.5%
T17A: 76.7%
T1Y: 84.9%
L29T: 56.2%
P146V: 37.4%
C25V: 92.7%
T39G: 57.4%
Q167D: 70.6%

Series 5
Target: OGT, full length, His-tagged (human)
Technique: phage display, sequencing
Sample: in vitro
Tested at: 1 µg OGT
Setting: single substitutions, 15-mer displayed peptide, unchanged parent 19.6
Baseline: input library
Reading: higher = stronger binding
Measurement: fold enrichment
Parent: peptide; TAPFYPPAYQIQVFK; partner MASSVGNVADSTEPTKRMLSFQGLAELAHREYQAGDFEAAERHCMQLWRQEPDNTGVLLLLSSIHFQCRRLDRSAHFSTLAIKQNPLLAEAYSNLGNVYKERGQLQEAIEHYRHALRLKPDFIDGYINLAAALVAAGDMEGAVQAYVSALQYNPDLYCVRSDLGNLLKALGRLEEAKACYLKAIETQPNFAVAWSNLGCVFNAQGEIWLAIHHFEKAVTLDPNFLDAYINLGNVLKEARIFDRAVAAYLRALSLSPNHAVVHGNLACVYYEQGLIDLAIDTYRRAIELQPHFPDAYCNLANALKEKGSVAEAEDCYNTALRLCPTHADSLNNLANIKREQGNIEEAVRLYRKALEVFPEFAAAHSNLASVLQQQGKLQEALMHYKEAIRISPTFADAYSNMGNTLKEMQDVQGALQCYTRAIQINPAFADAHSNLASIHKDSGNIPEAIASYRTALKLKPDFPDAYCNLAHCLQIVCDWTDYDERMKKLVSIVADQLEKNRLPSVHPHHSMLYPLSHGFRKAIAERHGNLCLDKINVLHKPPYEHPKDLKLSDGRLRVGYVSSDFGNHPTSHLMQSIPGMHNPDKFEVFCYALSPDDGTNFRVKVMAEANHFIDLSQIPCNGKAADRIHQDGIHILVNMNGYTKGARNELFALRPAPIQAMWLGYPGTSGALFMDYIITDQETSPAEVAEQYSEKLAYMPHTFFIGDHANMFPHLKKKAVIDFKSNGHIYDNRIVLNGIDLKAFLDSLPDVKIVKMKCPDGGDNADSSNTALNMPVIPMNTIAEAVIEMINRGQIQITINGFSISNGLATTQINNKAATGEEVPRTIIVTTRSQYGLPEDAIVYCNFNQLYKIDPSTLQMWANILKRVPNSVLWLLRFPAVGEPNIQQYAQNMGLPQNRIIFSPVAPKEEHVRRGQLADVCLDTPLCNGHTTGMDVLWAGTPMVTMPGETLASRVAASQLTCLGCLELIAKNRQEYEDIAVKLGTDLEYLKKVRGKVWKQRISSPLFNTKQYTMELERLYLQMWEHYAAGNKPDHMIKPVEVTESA
FAPFYPPAYQIQVFK [T1F]: 19.5 fold
GAPFYPPAYQIQVFK [T1G]: 13.1 fold
TAFFYPPAYQIQVFK [P3F]: 18.1 fold
TAPFMPPAYQIQVFK [Y5M]: 0.399 fold
TAPFYPPAPQIQVFK [Y9P]: 0.815 fold
SAPFYPPAYQIQVFK [T1S]: 18.8 fold
TAPFYPGAYQIQVFK [P7G]: 1.13 fold
TAPNYPPAYQIQVFK [F4N]: 10.2 fold
TAPFYPPAYQIQRFK [V13R]: 1.29 fold
TKPFYPPAYQIQVFK [A2K]: 15.6 fold
TAPFYGPAYQIQVFK [P6G]: 1.32 fold
TAPFPPPAYQIQVFK [Y5P]: 1.27 fold
TAPFYPPAYQIQYFK [V13Y]: 23 fold
TAPFYPPAYQISVFK [Q12S]: 8.24 fold
TAPFYPPAYQINVFK [Q12N]: 13.7 fold
TAPFYPPAYQIDVFK [Q12D]: 11.2 fold
TAPFYPPDYQIQVFK [A8D]: 6.91 fold

Series 6
Target: CCNB2, cyclin fold, Cln2 fusion (human)
Technique: yeast growth competition, sequencing
Sample: yeast
Setting: weak parent motif
Baseline: not given
Reading: higher = stronger binding
Measurement: normalised enrichment score
Parent: WEE2 docking peptide (human); KELRQKLNFSYCE
KALRQKLNFSYCE [E2A]: 0.705
KELRQKLNFSYCA [E13A]: 0.582
KEARQKLNFSYCE [L3A]: -0.307
KELAQKLNFSYCE [R4A]: -0.118
KELRQKANFSYCE [L7A]: 0.265
KELRQKLNFSYAE [C12A]: 0.44
KELRAKLNFSYCE [Q5A]: 0.193

For quick reference, copied from above (series 3):
AAGTAGAG: 0.101
GTGATTAA: 0.219
GTTTTGCA: 0.0892
TCGCTCAA: -0.14
CGGCCACA: -0.216
AACTTCAG: -0.00556
CCAGCGAC: -0.355
CCTGCTTC: -0.184
AAGGCAAT: 0.131
